# Assay results from different studies.
# Compare with care: the assays were run in different laboratories. ± marks the error that the study gave.
Compound,target or system,assay,system,setting,scale,endpoint,value
CNS(=O)(=O)Nc1nccc(Cc2c(C)c3ccc(Oc4ncccc4F)cc3oc2=O)c1F,Farage,"cell viability, CellTiter-Glo",,7 days,,IC50,> 1 µM
O=[N+]([O-])C(=C\Nc1ccccc1O)/C=N/c1ccccc1O,Mus musculus,"gene silencing, high-content imaging",LDR reporter GFP cells,"confirmation, mean of two runs",,EC50,17.8 µM
O=C(N/N=C/c1cc[n+](CC2CC2)c2ccccc12)c1cc(C(=O)N/N=C/c2cc[n+](CC3CC3)c3ccccc23)ncn1,hp2 hairpin duplex DNA,FRET melting,,"1 µM, with: ds26 10 µM",,ΔTm,0.5 ± 0.3 °C
Cc1ncsc1-c1ccc(C(C)NC(=O)C2CC(O)CN2C(=O)C(NC(=O)CCCCCCCCCCN2CCCC(Nc3ncc(Cl)c(Nc4ccccc4S(=O)(=O)C(C)C)n3)C2)C(C)(C)C)cc1 (stereo not drawn),22Rv1,"RNA-seq, item: ZMYM4 mRNA",,concentration not given,baseline: DMSO,log2 fold change,-1.06
C[n+]1cc(/C=N/NC(=O)c2cc(C(=O)N/N=C/c3cc4ccccc4[n+](C)c3)ncn2)cc2ccccc21,hp2 hairpin duplex DNA,FRET melting,,"1 µM, with: ds26 10 µM",,ΔTm,0.7 ± 0.2 °C
Nc1ncc(-c2cc(-c3cnn(CC(F)(F)F)c3)ncc2F)nc1C(=O)NC1CNCC(F)C1 (stereo not drawn),KIT-autoinhibited,KINOMEscan competition binding,,1 µM,baseline: DMSO control,remaining binding,81%
COC1CN([C@H]2CC[C@H]([C@@]3(C)Oc4c(Cl)cc(C(=O)NCc5c(SC)cc(C)[nH]c5=O)c(C)c4O3)CC2)C1,,"RNA-seq, item: DAB2IP mouse homolog","mouse, HT-1376 xenograft, whole blood",dose not given,baseline: vehicle,log2 fold change,0.159
Cc1ccc(C(C)C)c(OCc2ccc(C(=O)N/N=C/c3cccc(O)c3O)cc2)c1,Mus musculus,"gene silencing, high-content imaging",LDR reporter GFP cells,"30 h, confirmation, mean of two runs",,Emax,23%
C[n+]1cccc2cc(/C=N/NC(=O)N/N=C/c3ccc4c(ccc[n+]4C)c3)ccc21,MYC parallel G4 DNA,FRET melting,,"1 µM, DNA 0.2 µM",,ΔTm,4.7 ± 1.6 °C
C=CC(=O)Nc1cccc(Cn2ncc3cnc(Nc4cnn(CCOC)c4)nc32)c1,CLK3 human,"binding, KINOMEscan",,100 nM,lower = stronger binding,percent of control,100%
O=C(N/N=C/c1ccc(C[n+]2ccccc2)cc1)c1cccc(C(=O)N/N=C/c2ccc(C[n+]3ccccc3)cc2)n1,hp2 hairpin duplex DNA,FRET melting,,"1 µM, with: ds26 10 µM",,ΔTm,0.7 ± 0.2 °C
CN1CCCNC(=O)c2cccc(c2)C(=O)NCCCN(C)CCCNc2cccc3c2C(=O)c2cccc(c2C3=O)NCCC1,SAS,"RNA-seq, item: MT-ATP6 mRNA",,"1 µM, 6 h",baseline: untreated cells,log2 fold change,-1.09

# A few entries again:
Compound,target or system,assay,system,setting,scale,endpoint,value
Nc1ncc(-c2cc(-c3cnn(CC(F)(F)F)c3)ncc2F)nc1C(=O)NC1CNCC(F)C1 (stereo not drawn),KIT-autoinhibited,KINOMEscan competition binding,,1 µM,baseline: DMSO control,remaining binding,81%
